Measurements of several laboratories.
Each numbered part is a random draw from the data of one study; scales do not carry over between parts.

Set 1 — technique: protein binding microarray; molecule type: double-stranded DNA, one strand shown; matrix: in vitro; concentration: not given; reference: not given; reading: higher = stronger binding; endpoint: E-score
Target: Histone acetyltransferase KAT6A, winged helix 2, GST fusion (KAT6A, Homo sapiens, UniProt Q92794, residues 85-181)
Notes: 8-mer, flanks averaged, mean of 2 arrays, mostly near background
Target sequence (chain): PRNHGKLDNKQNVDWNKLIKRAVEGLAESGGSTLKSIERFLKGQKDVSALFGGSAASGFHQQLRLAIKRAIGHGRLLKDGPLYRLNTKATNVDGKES
GACCAGGC: -0.0319
CCATGACG: 0.121
CAGGCATC: 0.0621
GCCAGTAA: -0.0877
CTATAAGA: -0.121
ACGATGAA: -0.0924
CTGGACTA: -0.0425
CTCCTCCC: 0.197
CACCTTAG: -0.0307
CCAGCACA: 0.106
GCGTTCCC: -0.0431
CTACACTA: -0.111
CAACGATA: 0.095
CGCACGTC: -0.111
ATGGACAC: 0.122
ATCGCTGC: 0.0913
GAGTAATA: 0.012
CTGGTCTC: -0.0763
ACTCGTTC: -0.0328
ACCCGACG: 0.0514
CTATACCC: -0.15
ACTAGTCT: -0.17
AACAAGTA: -0.148
AGCGTGAC: 0.00378
GCGGACGC: 0.219

Set 2 — target: UBE2E1 UBC core domain (UniProt P51965); technique: yeast two-hybrid; matrix: yeast; notes: mostly zero background; reference: not given; reading: higher = stronger interaction; endpoint: lacZ reporter activity
Sequence of UniProt P51965 (whole entry, looked up): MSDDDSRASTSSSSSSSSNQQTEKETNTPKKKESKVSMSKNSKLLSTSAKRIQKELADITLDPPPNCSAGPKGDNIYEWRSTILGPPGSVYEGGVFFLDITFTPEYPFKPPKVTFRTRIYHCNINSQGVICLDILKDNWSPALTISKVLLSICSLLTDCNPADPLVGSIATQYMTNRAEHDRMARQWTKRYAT
B1: RNF32 RING domain (UniProt Q9H0A6); chain VQALRRETHECSICLAPLSAAGGQRVGAGRRSREMALLSCSHVFHHACLLALEEFSVGDRPPFHACPLCRSCYQKKILEC
B2: NHLRC1 RING domain (UniProt Q6VVB1); chain MREAEISLLECKVCFEKFGHRQQRRPRNLSCGHVVCLACVAALAHPRTLALECPFCRRACRGCDTSD
B3: MDM2 RING domain (UniProt Q00987); chain TQDKEESVESSLPLNAIEPCVICQGRPKNGCIVHGKTGHLMACFTCAKKLKKRNKPCPVCRQPIQMIVLTYFP
B4: MARCHF2 RING domain (UniProt Q9P0N8); chain RLLSTVIRALDTPSDGPFCRICHEGANGECLLSPCGCTGTLGAVHKSCLEKWLSSSNTSYCELCHTEFAVEKRPRPLTEWL
B5: RMND5B RING domain (UniProt Q96G75); chain MKCWYHSVFACPILRQQTSDSNPPIKLICGHVISRDALNKLINGGKLKCPYCPMEQNPADGK
B6: TRIM28 RING domain (UniProt Q13263); chain GAEALELLEHCGVCRERLRPEREPRLLPCLHSACSACLGPAAPAAANSSGDGGAAGDGTVVDCPVCKQQCFSKDIVE
B7: CBLL1 RING domain (UniProt Q75N03); chain GEKDDTPVHFCDKCGLPIKIYGRMIPCKHVFCYDCAILHEKKGDKMCPGCSDPVQRIEQCT
B8: TRIM34 RING domain (UniProt Q9BYJ4); chain ILLNVQEEVTCPICLELLTEPLSLDCGHSLCRACITVSNKEAVTSMGGKSSCPVCGISYSFEHLQA
FLSKVEETFQCICCQELVFRPITTVCQHNVCKDCLDRSFRAQVFSCPACRYDLGRSYAMQ (UHRF1 RING domain (UniProt Q96T88)): 0
B1 (RNF32 RING domain): 0
B2 (NHLRC1 RING domain): 0
B3 (MDM2 RING domain): 0
PLRRLQEEKLCKICMDRHIAVVFIPCGHLVTCKQCAEAVDRCPMCSAVIDFKQRVF (BIRC8 RING domain (UniProt Q96P09)): 0
B4 (MARCHF2 RING domain): 0
MEEMEEELKCPVCGSFYREPIILPCSHNLCQACARNILVQTPESESPQSHRAAGSGVSDY (TRIM9 RING domain (UniProt Q9C026)): 0
B5 (RMND5B RING domain): 13400
B6 (TRIM28 RING domain): 0
GSEEEEIPFRCFICRQAFQNPVVTKCRHYFCESCALEHFRATPRCYICDQPTGGIFNPA (RNF113B RING domain (UniProt Q8IZP6)): 0
B7 (CBLL1 RING domain): 0
B8 (TRIM34 RING domain): 0

Set 3 — technique: RNA Bind-n-Seq; molecule type: RNA; matrix: in vitro; concentration: 100 nM; reference: input RNA pool; reading: higher = stronger binding; endpoint: bound/input enrichment
Target: RING finger protein unkempt homolog, zinc fingers 1-6, SBP tag (UNK, Homo sapiens, UniProt Q9C0B0, residues 30-357)
Sequence of UniProt Q9C0B0 (30-357, looked up): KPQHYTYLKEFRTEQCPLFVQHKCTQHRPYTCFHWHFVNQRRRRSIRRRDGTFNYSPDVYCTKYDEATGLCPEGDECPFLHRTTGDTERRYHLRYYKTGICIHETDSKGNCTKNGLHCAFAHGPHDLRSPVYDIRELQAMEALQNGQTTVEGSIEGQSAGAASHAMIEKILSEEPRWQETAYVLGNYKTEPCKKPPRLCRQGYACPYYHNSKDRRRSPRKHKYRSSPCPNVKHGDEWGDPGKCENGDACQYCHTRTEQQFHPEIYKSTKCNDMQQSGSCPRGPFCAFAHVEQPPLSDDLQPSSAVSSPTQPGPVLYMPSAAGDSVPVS
Notes: RNA with constant flanks, vertebrate orthologous sites, ends assumed
Shared flanks, not repeated: GGGAGUUCUACAGUCCGACGAUC … CAACAGAGGAUUGAGCAUCA
UUGUAUGGGCCUCGCAGGGUUGAGAUAAUAGAAGAUGAAACCGAACAGUAGUCUUCAUUUUAGUAUUAUGACUAGGUGUGGAAUAAAUGUUCCCUGUUGAUCUUACCUAUAAUCUGGGGC: 1.19 ratio
CAACUCAAUGGUUGAGGGUUCGGAGCUCAAAAAGGUUCGCUCCAACUCUAGAAUUUACCAUAGGUAUUUUUUAUUGGAUGCCGACAUGCAGAGCCUGAGGUGGGAACCAUCAAAGAAGGA: 0.24 ratio
AAUACAUGUGUGAAACAUGUCUACCCAGAAAACAUAGCAUUCUGUAAAUAUCAAGGAAUUUAGCUAGAGUACUUUUAGGUAUUAAAUUACAUAUUAAGCAUUUAAAGUGAAUUUGGGAUU: 0.363 ratio
GUCAUCUGACUGGAUGAAGACUGUUCCAAGUUACAACCAAACAAAUAGCUCCAUGGACUUUAGAAAUUAUAUGAUGAGAGAUGAGACUCUGGAACCACUGCCCAAAAACUGGGAAAUGGC: 1.07 ratio
UUACAGUCAUUGAUGGACUCUAUUUUUUUAUUAUUACUUGGACCUUGGUCGUUUUUAUACUAGCAAAAUGUCUUGUUUUAAUUUGUGUUUUUUGUGGGGAGGGAGGGAGUGAACUUGCUG: 1.66 ratio
UCCCAGCACUUUGAUAAAAAGUGUGGACUGGCUGCUUGUAUUUUCCUUAUUCUUUUUAAUUAGUUUUAUUAUGUAUGCCACCAUUCGAACGGAGAGUAUUCGGUGGCUAAUUCCAGGACA: 8.47 ratio
ACAGGAGCAGUACAGGCUGUUUGAUCUUUGAAGAAAUGAGCUUUGCUUUUUAUAUUUAAAUAGGAUACUUUUAUAUGAUGGGUGCUUUGAGUGUGAAUGCAGCAGUCUGUCCAUUUCAGA: 1.09 ratio
CAUGUCCUUUUUACUGUGGUAUUCAGAACAGCCACAGUACUCACUUUUUCCAAAUGAUUCUAGUAAUUGCCUAGAAAUAUCUUUUUCUUACCUGUUAUUUAUCAAUUUUUCCCAGUAUUU: 1.48 ratio
GUUUUGGUACAAAGCUCUAUGUACCAAUGCUUAUCAUCCUUACAUCAUACCAACUGUUCCGAAGUGUAGGAGUUUAAUAUUUUUCAAAAGUUUUACAUUGCUGUAUAUUCAAAGAUUUCU: 0.59 ratio
GUCCUUUCAUACUGUCCCCAGCCAGGGUCAAGGACCAGACGUUUCACUGAGGACCUGCAUUUCAAACAGUUUUUAAAUUGUACAGGAAGAGAUGCGACAAAACAGCAUCUCAGCGUCGAG: 0.362 ratio
CAUGUCCUUUGUACUGUGGUAUUCAGAACAGCCACAGUACUCACUUUUUCCAAAUGAUUCUAGUAAUUGCCUAGAAAUAUCUUUUUCUUACCUGUUAUUUAUCAAUUUUUCCCAGUAUUU: 1.53 ratio

Set 4 — technique: protein-binding microarray; molecule type: double-stranded DNA, one strand shown; matrix: in vitro; concentration: not given; reading: higher = stronger binding; endpoint: E-score
Target: Protein C-ets-1 (ETS1, Homo sapiens, UniProt P14921, residues 1-441, K379A, full length assumed)
Notes: k-mer, scored over probes, only values ≥0.25
Construct (chain): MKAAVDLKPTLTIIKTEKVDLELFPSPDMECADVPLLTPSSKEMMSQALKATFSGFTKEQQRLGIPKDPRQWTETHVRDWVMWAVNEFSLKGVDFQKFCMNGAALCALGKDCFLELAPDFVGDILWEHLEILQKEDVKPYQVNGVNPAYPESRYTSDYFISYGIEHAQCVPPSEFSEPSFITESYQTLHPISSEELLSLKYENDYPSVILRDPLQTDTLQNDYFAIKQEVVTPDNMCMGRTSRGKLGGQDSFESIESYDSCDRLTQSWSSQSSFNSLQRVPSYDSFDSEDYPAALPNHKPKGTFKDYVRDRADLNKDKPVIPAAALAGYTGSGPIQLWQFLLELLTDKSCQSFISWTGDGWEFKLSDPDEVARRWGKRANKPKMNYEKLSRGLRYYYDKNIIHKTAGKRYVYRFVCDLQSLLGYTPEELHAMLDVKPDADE
ATTTTCCG: 0.273
CACATATC: 0.293
AACAGACA: 0.257
ATACAGTA: 0.27
CCCTCCCC: 0.268
ATCACCGG: 0.365
GTGTTGTA: 0.258
ACCGACGG: 0.334
AACCGACA: 0.284
CCGGTCCC: 0.289
AGTATATA: 0.269
GACGTCCA: 0.265
GCCCACCC: 0.321
GCGGGACA: 0.27

A few entries again (set 1):
GCGTTCCC: -0.0431
ATGGACAC: 0.122
AGCGTGAC: 0.00378
CTGGACTA: -0.0425
